Assay results pooled from the literature.
Lines come from different studies, so protocols differ. ± marks the error that the study gave.
Sialidase-2: Sialidase-2 (Homo sapiens, UniProt Q9Y3R4)
Sequence of UniProt Q9Y3R4 (whole entry, looked up): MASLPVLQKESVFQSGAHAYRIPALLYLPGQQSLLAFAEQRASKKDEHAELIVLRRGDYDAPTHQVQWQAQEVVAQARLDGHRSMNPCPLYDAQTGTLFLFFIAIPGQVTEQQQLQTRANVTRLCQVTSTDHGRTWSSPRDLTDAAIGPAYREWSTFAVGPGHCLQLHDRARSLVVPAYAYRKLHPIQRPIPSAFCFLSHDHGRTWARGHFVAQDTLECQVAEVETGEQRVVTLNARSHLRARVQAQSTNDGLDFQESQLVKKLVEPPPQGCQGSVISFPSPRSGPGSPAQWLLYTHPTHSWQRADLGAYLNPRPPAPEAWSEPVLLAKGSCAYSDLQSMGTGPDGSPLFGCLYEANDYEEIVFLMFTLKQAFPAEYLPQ
Sequence of UniProt P52790 (whole entry, unmodified, looked up): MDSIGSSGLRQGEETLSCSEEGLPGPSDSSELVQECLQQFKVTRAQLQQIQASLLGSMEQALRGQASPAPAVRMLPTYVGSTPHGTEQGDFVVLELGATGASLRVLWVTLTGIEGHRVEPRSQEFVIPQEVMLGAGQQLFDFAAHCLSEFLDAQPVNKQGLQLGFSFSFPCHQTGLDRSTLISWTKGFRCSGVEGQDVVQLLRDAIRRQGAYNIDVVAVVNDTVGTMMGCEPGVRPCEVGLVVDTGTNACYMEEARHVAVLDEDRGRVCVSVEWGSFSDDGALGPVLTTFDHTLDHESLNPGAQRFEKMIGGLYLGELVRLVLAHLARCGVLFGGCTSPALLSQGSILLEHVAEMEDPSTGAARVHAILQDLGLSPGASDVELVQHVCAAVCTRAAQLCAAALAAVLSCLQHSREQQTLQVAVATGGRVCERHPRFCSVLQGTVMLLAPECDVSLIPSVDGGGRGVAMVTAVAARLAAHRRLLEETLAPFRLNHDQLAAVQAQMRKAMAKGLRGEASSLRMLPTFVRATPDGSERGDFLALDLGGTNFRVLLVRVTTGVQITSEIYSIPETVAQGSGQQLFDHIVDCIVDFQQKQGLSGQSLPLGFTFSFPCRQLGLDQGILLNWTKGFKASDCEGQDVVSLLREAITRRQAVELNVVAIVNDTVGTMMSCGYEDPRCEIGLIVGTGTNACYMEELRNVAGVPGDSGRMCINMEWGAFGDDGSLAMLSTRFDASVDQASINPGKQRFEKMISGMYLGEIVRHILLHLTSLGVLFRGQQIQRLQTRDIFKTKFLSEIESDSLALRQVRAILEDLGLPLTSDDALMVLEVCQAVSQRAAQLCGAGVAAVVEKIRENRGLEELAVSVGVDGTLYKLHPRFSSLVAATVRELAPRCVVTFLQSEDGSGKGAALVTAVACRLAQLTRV

[N-]=[N+]=NCC(=O)N[C@H]1[C@H]([C@H](O)[C@H](O)CO)O[C@@](O[C@H]2[C@@H](O)[C@@H](CO)O[C@@H](Oc3ccc([N+](=O)[O-])cc3)[C@@H]2O)(C(=O)O)C[C@@H]1O — Km (Sialidase-2; substrate; 10 min, pH 5.0, 37 °C): 1000 ± 200 µM
N#CCC(=O)Nc1ccc([C@H]2[C@@H](F)[C@@H](F)C[C@@H](F)[C@H]2F)cc1 — hepatic clearance (hepatocyte stability; cryopreserved rat hepatocytes; 1 µM): 11 mL/min/kg
O=C(Cc1cccs1)N[C@@H]1C(=O)N2C(C(=O)O)=C(/C=C/c3ccc([N+](=O)[O-])cc3[N+](=O)[O-])CS[C@H]12 — Km (beta-lactamase RAD-1 (Riemerella anatipestifer); substrate, continuous spectrophotometric hydrolysis; 30 °C): 7.6 ± 1.5 µM
CC(=O)N[C@H]1[C@H]([C@H](O)[C@H](O)CO)OC(O[C@H]2[C@@H](O)[C@@H](CO)O[C@@H](Oc3ccc([N+](=O)[O-])cc3)[C@@H]2O)(C(=O)O)C[C@@H]1O (stereo partly shown) — Km (Sialidase-2; substrate; 10 min, pH 5.0, 37 °C): 2200 ± 400 µM
Nc1ncnc2c1ncn2[C@@H]1O[C@H](COP(=O)(O)OP(=O)(O)OP(=O)(O)O)[C@@H](O)[C@H]1O — Km (Hexokinase-3 (HK3, Homo sapiens, UniProt P52790, A499V); substrate; mutant A499V, added: glucose 0.5 mM): 1900 ± 100 µM
CC1(C)S[C@@H]2[C@H](NC(=O)Cc3ccccc3)C(=O)N2[C@H]1C(=O)O — Km (beta-lactamase RAD-1 (Riemerella anatipestifer); substrate, continuous spectrophotometric hydrolysis; 30 °C): 312 ± 39 µM
CCOc1c([C@H](C)n2nc(C)c3c(N)ncnc32)cc(Cl)c(F)c1[C@@H]1CNC(=O)C1 — AUC(0-last) (patients, monotherapy; oral, 15 mg once daily, cycle 1 day 1): 3.73 ± 0.678 µM·h
OO — Km (alternative ancestral dye-decolorizing peroxidase; peroxidase activity, substrate, steady-state kinetics; 25 °C, pH 3 ABTS, 4 others): 16 µM
O=P(O)(O)OC[C@H](O)CO — Km (GPAT (Gat1 and Gat2), yeast; substrate; Saccharomyces cerevisiae, BY4741 wild type, total membranes; added: 16:0 acyl-CoA 50 µM): 29.4 ± 1 µM
CN(C)CCC(=O)Nc1ccc(C2CCCCC2)cc1 — hepatic clearance (liver microsome stability; rat liver microsomes; 1 µM): 49 mL/min/kg
C[C@@H](O)[C@H]1C(=O)N2C(C(=O)O)=C(S[C@@H]3CN[C@H](C(=O)N(C)C)C3)[C@H](C)[C@H]12 — Km (beta-lactamase RAD-1 (Riemerella anatipestifer); substrate, continuous spectrophotometric hydrolysis; 30 °C): 20 ± 2.2 µM
Nc1c(S(=O)(=O)O)cc(Nc2cccc(S(=O)(=O)CCOS(=O)(=O)O)c2)c2c1C(=O)c1ccccc1C2=O — Km (alternative ancestral dye-decolorizing peroxidase; peroxidase activity, substrate, steady-state kinetics; 25 °C, pH 3 ABTS, 4 others): 19 µM
[N-]=[N+]=NCC(=O)N[C@H]1[C@H]([C@H](O)[C@H](O)CO)O[C@@](OC[C@H]2O[C@@H](Oc3ccc([N+](=O)[O-])cc3)[C@H](O)[C@@H](O)[C@H]2O)(C(=O)O)C[C@@H]1O — Km (Sialidase-2; substrate; 10 min, pH 5.0, 37 °C): 600 ± 200 µM

A few entries again:
[N-]=[N+]=NCC(=O)N[C@H]1[C@H]([C@H](O)[C@H](O)CO)O[C@@](OC[C@H]2O[C@@H](Oc3ccc([N+](=O)[O-])cc3)[C@H](O)[C@@H](O)[C@H]2O)(C(=O)O)C[C@@H]1O — Km (Sialidase-2; substrate; 10 min, pH 5.0, 37 °C): 600 ± 200 µM
